Measurements collected from several papers.
Lines come from different studies, so protocols differ. Numbers after ± are the reported error.

Structure (SMILES) = CCCCOC(=O)/C=C/c1ccc(OCCNS(=O)(=O)c2ccccc2F)c(OC)c1; organism = tobacco mosaic virus; test = inactivation activity, half-leaf method; EC50 = 238 ± 5.5 µg/mL
Structure (SMILES) = CCCCCCCCC1=C(C(CCCCCCC(=O)OC)OC)C1 (centres unmarked); organism = Toxoplasma gondii; test = parasite-induced cytopathic effect; test system = Vero, RH; setting = 24 h; EC50 = 248000 ± 17900 nM
Structure (SMILES) = CCCCOC(=O)/C=C/c1ccc(OCCNS(=O)(=O)c2c(F)cccc2F)c(OC)c1; organism = tobacco mosaic virus; test = inactivation activity, half-leaf method; EC50 = 640.2 ± 5.9 µg/mL
Structure (SMILES) = COc1ccc(NC(=O)N2CCCN3CCC(c4ccc(C#CC5CCCCC5)cc4)C3C2)cc1 (centres unmarked); organism = Toxoplasma gondii; test system = HFF, RH (type I); EC50 = 290 nM
Structure (SMILES) = O=c1ccn(CCCCCOc2ccc(Br)cc2)c(=O)n1Cc1ccc2ccccc2c1; organism = human betaherpesvirus 5; test = plaque formation; test system = HEL, Davis; EC50 = > 4000 nM
Structure (SMILES) = CCCCCCCCC1=C(CCCCCCCCC(=O)OC)C1; organism = Toxoplasma gondii; test = parasite-induced cytopathic effect; test system = Vero, RH; setting = 24 h; EC50 = 428000 ± 15700 nM
Structure (SMILES) = CC(C)C[C@H](NC(=O)OCc1ccccc1)C(=O)N[C@@H](C[C@H]1CCNC1=O)C(=O)C(=O)NC1CC1; organism = human rhinovirus 51; test = viral replication; test system = WI-38; setting = 37 °C; EC50 = 70 ± 10 nM
Structure (SMILES) = CCOC(=O)/C=C/c1ccc(OCCNS(=O)(=O)c2c(Cl)cccc2Cl)c(OC)c1; organism = tobacco mosaic virus; test = inactivation activity, half-leaf method; EC50 = 361 ± 5.1 µg/mL
Structure (SMILES) = O=C(N[C@@H](Cc1ccccc1)C(=O)N[C@@H](C[C@H]1CCNC1=O)C(=O)C(=O)NC1CC1)OCc1ccccc1; organism = Enterovirus D68; test = viral replication; test system = WI-38; setting = 37 °C; EC50 = 30 ± 10 nM
Structure (SMILES) = O=c1ccn(CCCCCOc2ccc(Br)cc2)c(=O)n1Cc1ccc2ccccc2c1Br; organism = human betaherpesvirus 5; test = plaque formation; test system = HEL, Davis; EC50 = > 20000 nM
Structure (SMILES) = Cc1ccc(NC(=O)N2CCCN3CCC(c4ccc(C#Cc5cccnc5)cc4)C3C2)cc1 (centres unmarked); organism = Toxoplasma gondii; test system = HFF, RH (type I); EC50 = 520 nM
Structure (SMILES) = CC(C)C[C@H](NC(=O)OCc1ccccc1)C(=O)N[C@H](C=O)C[C@H]1CCNC1=O; organism = human rhinovirus 1B; test = viral replication; test system = WI-38; setting = 37 °C; EC50 = 1900 ± 1410 nM
Structure (SMILES) = CC(=O)N[C@@H]1[C@@H](OC(C)=O)[C@H](OC(C)=O)[C@@H](COC(C)=O)O[C@H]1[Se]Cc1ccc([N+](=O)[O-])cc1; organism = Trypanosoma brucei brucei; test = viability; test system = bloodstream form; setting = 24 h; EC50 = 7690 ± 630 nM
Structure (SMILES) = O=C[C@H](C[C@H]1CCNC1=O)NC(=O)[C@H](CC1CCCCC1)NC(=O)OCc1ccccc1; organism = human rhinovirus 51; test = viral replication; test system = WI-38; setting = 37 °C; EC50 = 140 ± 80 nM
Structure (SMILES) = COc1ccc(NC(=O)N2CCCN3CCC(c4ccc(C#Cc5ccccc5)cc4)C3C2)cc1 (centres unmarked); organism = Toxoplasma gondii; test system = HFF, RH (type I); EC50 = 270 nM
Structure (SMILES) = COC(=O)/C=C/c1ccc(OCCNS(C)(=O)=O)c(OC)c1; organism = tobacco mosaic virus; test = inactivation activity, half-leaf method; EC50 = 419.3 ± 3.8 µg/mL
Structure (SMILES) = CC(C)C[C@H](NC(=O)OCc1cccc(Cl)c1)C(=O)N[C@H](C=O)C[C@H]1CCNC1=O; organism = Enterovirus D68; test = viral replication; test system = WI-38; setting = 37 °C; EC50 = 430 ± 40 nM
